Assay results from different studies.
Protocols differ between the studies behind these lines.

Cc1cc(C)c(C(N)=O)c(SCC(=O)c2ccc(F)cc2)n1
EC50 (Trypanosoma brucei; parasite growth, resazurin; RHODESIENSE): 28.3 µM

Fc1cccc(Nc2nccc(NC3CCCCC3)n2)c1
EC50 (BJ; cell growth or viability, ATP luminescence; 72 h): > 20 µM

CCCn1cnc2ccc(-c3ccc(NC(=O)CC(C)CC)nc3)cc2c1=O (stereo not shown)
IC50 (HCC827; cell growth or viability, CCK-8; 72 h): 0.34 µM

CC(=O)Nc1ccc(Oc2nnc(-c3ccc(Cl)cc3)c3ccccc23)cc1
cell death (HepG2; cell growth or viability, MTT; 10 µM): 93.2%

CCCN(O)N=Nc1ccc(S(=O)(=O)Nc2cc(C)on2)cc1
inhibition (DPPH scavenging, absorbance; 60 µg/mL): 16.7%

Cc1cc(C)c(C#N)c(SCC(=O)c2ccsc2)n1
EC50 (Trypanosoma brucei; parasite growth, resazurin): > 64 µM

COc1ccc(Cn2cnc3ccc(-c4ccc(NC(=O)c5ccccc5)nc4)cc3c2=O)cc1
IC50 (HCC827; cell growth or viability, CCK-8; 72 h): > 10 µM

CN(Cc1ccc(C(C)(C)C)cc1)Cc1cccc2ccccc12
inhibition zone (Trichophyton mentagrophytes; microbial growth, disc diffusion; ATCC18748; 0.008 µg/mL, 72 h): 44.2 mm

CC(=NNC(=O)c1ccccc1)c1ccc(Nc2nnc(-c3ccc(Cl)cc3)c3ccccc23)cc1
cell death (HepG2; cell growth or viability, MTT; 1.25 µM): 86.6%

CCCCn1cnc2ccc(-c3ccc(NC(=O)NCCc4ccccc4)nc3)cc2c1=O
IC50 (NCI-H1975; cell growth or viability, CCK-8; 72 h): 3.69 µM

CCCN(O)N=Nc1ccc(S(=O)(=O)Nc2onc(C)c2C)cc1
inhibition (DPPH scavenging, absorbance; 120 µg/mL): 11.1%

CC(C)Nc1ccnc(Nc2cccc(-c3ccncc3)c2)n1
EC50 (BJ; cell growth or viability, ATP luminescence; 72 h): > 16 µM

COc1cc(-c2nc3ccccc3c(=O)n2Nc2ccc([N+](=O)[O-])cc2[N+](=O)[O-])ccc1OCc1cn(CC(=O)Nc2cccc(C)c2C)nn1
inhibition (DPPH scavenging, absorbance; 100 µM): 16.6%

Cc1ccc(N(O)N=Nc2ccc(S(=O)(=O)Nc3cc(C)on3)cc2)cc1
inhibition (DPPH scavenging, absorbance; 180 µg/mL): 27.9%

O=C(O)c1ccc(O)cc1
inhibition (Helicobacter pylori; microbial growth, broth dilution; 3.9 µg/mL): 100%

COc1cccc(NC(=O)Cn2cc(COc3ccc(-c4nc5ccccc5c(=O)n4Nc4ccc([N+](=O)[O-])cc4[N+](=O)[O-])cc3OC)nn2)c1
inhibition (DPPH scavenging, absorbance; 100 µM): 19.1%

O=C(Nc1ccc(Oc2nnc(-c3ccc(Cl)cc3)c3ccccc23)cc1)c1ccccc1
cell death (HepG2; cell growth or viability, MTT; 10 µM): 95.9%

Cc1cc(C)c(C#N)c(SCC(=O)c2ccccc2)n1
EC50 (Trypanosoma brucei; parasite growth, resazurin): 52.5 µM

CC(=NNC(=O)c1ccccc1O)c1ccc(Nc2nnc(-c3ccc(Cl)cc3)c3ccccc23)cc1
cell death (HepG2; cell growth or viability, MTT; 10 µM): 95.3%

CNCc1cc(OC)cc2c1CN(c1cccc(-c3nncn3C(C)CC(F)(F)F)n1)C2=O (stereo not shown)
IC50 (NCI-H1975; cell growth or viability, CCK-8): 2.4 µM

Cc1cc(C)c(C#N)c(SCC(=O)Nc2ccccc2)n1
EC50 (Trypanosoma brucei; parasite growth, resazurin; RHODESIENSE): > 64 µM

O=C1O[C@H]([C@@H](O)CO)C(O)=C1O
inhibition (DPPH scavenging; 31.25 µg/mL): 50%

C=C[C@@]1(C)C=C2CC[C@@H]3[C@](C)(CCC[C@@]3(C)C(=O)O)[C@H]2CC1
inhibition (Helicobacter pylori; microbial growth, broth dilution; 125 µg/mL): 100%

Cc1cc(C)c(C#N)c(SCC(=O)c2ccc(F)cc2F)n1
EC50 (Trypanosoma brucei; parasite growth, resazurin; RHODESIENSE): 54.3 µM

O=C(Nc1ccc(-c2ccc3ncn(Cc4ccccc4)c(=O)c3c2)cn1)C1CCC1
IC50 (HCC827; cell growth or viability, CCK-8; 72 h): > 10 µM

COc1cc([C@H]2OC[C@H]3[C@@H]2CO[C@@H]3c2cc(OC)c(O)c(OC)c2)cc(OC)c1O
inhibition (Helicobacter pylori; microbial growth, broth dilution; 1.95 µg/mL): 100%

Cc1cc(C)c(C#N)c(OCC(=O)c2ccccc2)n1
EC50 (Trypanosoma brucei; parasite growth, resazurin): 44.1 µM

COC(=O)c1ccc(O)cc1
inhibition (Helicobacter pylori; microbial growth, broth dilution; 3.9 µg/mL): 100%

COc1ccnc(SCC(=O)c2ccccc2)c1C#N
EC50 (Trypanosoma brucei; parasite growth, resazurin; RHODESIENSE): 42.1 µM

O=C1O[C@H]([C@@H](O)CO)C(O)=C1O
inhibition (DPPH scavenging, absorbance; 60 µg/mL): 55.1%

CC(=NNC(=O)c1ccc(N)cc1)c1ccc(Nc2nnc(-c3ccc(Cl)cc3)c3ccccc23)cc1
cell death (HepG2; cell growth or viability, MTT; 2.5 µM): 79.2%

Cc1noc(NS(=O)(=O)c2ccc(N=NN(C)O)cc2)c1C
inhibition (DPPH scavenging, absorbance; 300 µg/mL): 28.1%

CC(=NNC(=O)c1ccccc1Cl)c1ccc(Nc2nnc(-c3ccc(Cl)cc3)c3ccccc23)cc1
cell death (HepG2; cell growth or viability, MTT; 10 µM): 96.8%

CN(O)N=Nc1ccc(S(=O)(=O)Nc2nccs2)cc1
inhibition (DPPH scavenging, absorbance; 180 µg/mL): 23.3%

CC#CCn1cnc2ccc(-c3ccc(NC(=O)CCCC)nc3)cc2c1=O
IC50 (HCC827; cell growth or viability, CCK-8; 72 h): > 10 µM

O=C(Nc1ccccc1)Nc1ccc(Oc2nnc(-c3ccc(Cl)cc3)c3ccccc23)cc1
cell death (HepG2; cell growth or viability, MTT; 2.5 µM): 94.8%

CCCCC(=O)Nc1ncc(-c2ccc3ncn(CCC)c(=O)c3c2)cn1
IC50 (HCC827; cell growth or viability, CCK-8; 72 h): 0.88 µM

CN(Cc1ccc(C2(C(F)(F)F)CC2)cc1)Cc1cccc2ccccc12
inhibition zone (Trichophyton mentagrophytes; microbial growth, disc diffusion; ATCC18748; 0.00025 µg/mL, 72 h): 0 mm

CC(=NNC(=O)c1ccccc1Br)c1ccc(Nc2nnc(-c3ccc(Cl)cc3)c3ccccc23)cc1
cell death (HepG2; cell growth or viability, MTT; 0.625 µM): 78.8%

CC[C@H]1OC(=O)[C@H](C)[C@@H](O[C@H]2C[C@@](C)(OC)[C@@H](O)[C@H](C)O2)[C@H](C)[C@@H](O[C@@H]2O[C@H](C)C[C@H](N(C)C)[C@H]2O)[C@](C)(OC)C[C@@H](C)C(=O)[C@H](C)[C@@H](O)[C@]1(C)O
inhibition (Helicobacter pylori; microbial growth, broth dilution; 0.98 µg/mL): 92.5%

Cc1cc(C)c(C#N)c(SCC(N)c2ccccc2)n1 (stereo not shown)
EC50 (Leishmania infantum; parasite growth; mouse Macrophage; intracellular, amastigote): 32.3 µM

COc1ccc(-c2cc(=O)c3c(O)cc(O[C@@H]4O[C@H](CO)[C@@H](O)[C@H](O)[C@H]4O)cc3o2)cc1O
inhibition (Helicobacter pylori; microbial growth, broth dilution; 0.48 µg/mL): 73.9%

COc1cc([N+](=O)[O-])ccc1NC(=O)Cn1cc(COc2ccc(-c3nc4ccccc4c(=O)n3Nc3ccc([N+](=O)[O-])cc3[N+](=O)[O-])cc2OC)nn1
inhibition (DPPH scavenging, absorbance; 100 µM): 20.9%

COc1cc(-c2cc(=O)c3c(O)cc(O)cc3o2)ccc1O
inhibition (Helicobacter pylori; microbial growth, broth dilution; 0.98 µg/mL): 55.2%

COc1cc(-c2nc3ccccc3c(=O)n2Nc2ccc([N+](=O)[O-])cc2[N+](=O)[O-])ccc1OCc1cn(CC(=O)Nc2ccc(C)cc2)nn1
inhibition (DPPH scavenging, absorbance; 100 µM): 23.9%

Cc1cc(NS(=O)(=O)c2ccc(N=NN(C)O)cc2)no1
inhibition (DPPH scavenging, absorbance; 120 µg/mL): 34.7%

For quick reference, copied from above:
C=C[C@@]1(C)C=C2CC[C@@H]3[C@](C)(CCC[C@@]3(C)C(=O)O)[C@H]2CC1
inhibition (Helicobacter pylori; microbial growth, broth dilution; 125 µg/mL): 100%

Cc1cc(C)c(C#N)c(SCC(=O)c2ccc(F)cc2F)n1
EC50 (Trypanosoma brucei; parasite growth, resazurin; RHODESIENSE): 54.3 µM

O=C(Nc1ccc(-c2ccc3ncn(Cc4ccccc4)c(=O)c3c2)cn1)C1CCC1
IC50 (HCC827; cell growth or viability, CCK-8; 72 h): > 10 µM

COc1cc([C@H]2OC[C@H]3[C@@H]2CO[C@@H]3c2cc(OC)c(O)c(OC)c2)cc(OC)c1O
inhibition (Helicobacter pylori; microbial growth, broth dilution; 1.95 µg/mL): 100%

Cc1cc(C)c(C#N)c(OCC(=O)c2ccccc2)n1
EC50 (Trypanosoma brucei; parasite growth, resazurin): 44.1 µM
